{"data": "Measured values gathered from unrelated publications", "note": "Numbered parts are unrelated; each lists some results of a single study. Changes are numbered by the printed parent chain."}
{"data": "Sample 1", "target": "RNA binding protein fox-1 homolog 2, RRM domain, GST-SBP tag (RBFOX2, Homo sapiens, UniProt O43251-10, residues 100-194)", "technique": "RNA Bind-n-Seq", "molecule type": "RNA", "sample": "in vitro", "tested at": "365 nM", "setting": "natural RNA segment, single round, ends assumed", "reference": "no-protein control", "direction": "higher = stronger binding", "shared flanks, not repeated": "GGGAGUUCUACAGUCCGACGAUC … UGGAAUUCUCGGGUGCCAA", "Residues (chain)": "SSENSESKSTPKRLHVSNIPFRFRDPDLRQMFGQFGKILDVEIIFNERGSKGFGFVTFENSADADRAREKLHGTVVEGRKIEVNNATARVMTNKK"}
{"Oligonucleotide": "GGGCUGCAGAUAAAAAUAGGCAGGAAUCAAAUGACUAAGAAUGUAAUAGGGAAGAAGUGCCCUGCCUGCCAGCUUGGGAGUGAUUUGUACCUGUGUAUUUAUCCUUGAUC", "RBNS enrichment (R)": 3.01}
{"Oligonucleotide": "UUCUGGCCAUCCAUGCCCGCACCCACCUGCCAGGCCGCACGUACAGCUGCCCCGAUUGUGGCAAGACCUUCAACCGCUCCUCUACACUCAUUCAGCACCAGCGUUCCCAC", "RBNS enrichment (R)": 0.774}
{"Oligonucleotide": "UAAAGUCAUCACGAAAUGGAAGUUUUCCCAGGGUGGAAAAUAAGAGGAAGUGCUGCUGUAAUUGGGAGCACAAGGGGCCUCCCAAAAAGGAGCCCCACCUCAGCAUCACU", "RBNS enrichment (R)": 0.178}
{"Oligonucleotide": "UCCUGACUUCAAAUGAUCCACCCACAUCCACCUGCCAGAGUGCUGAGAUUACAGGCGUGAGCCACCGCACCUGGCCAAUGUUCUUUUAUAUACUCAUGUUUUCUAACAAA", "RBNS enrichment (R)": 0.578}
{"Oligonucleotide": "AAAUUGGUUUAGUUGCUGUAUAUCACCAUAGCCCCUGUUUACGUCAAACCUGUGUCUCGCUCUAUAUGCACUUUGUUUACUCUUUAUACAAUAAACAUACUAAAGACUUC", "RBNS enrichment (R)": 0.318}
{"Oligonucleotide": "CAAAGGAAGUAUGUAUUGCAUUAAUCAGGGCAUAACUAAUAUUCUCCUGUUCAGAAUAAUACUUAUUUACGUGUGAAAGCAACAUGGAUGUGAUUCCCAACACAGAAUUU", "RBNS enrichment (R)": 0.266}
{"Oligonucleotide": "GCCUCUUCUCCUUGGGUCUUGGGGUGGGUUAGAACUGGGUUCCAGUCUGGCCAGAUGGGUUGCUGGCUGCACUGAGGGUGAUUCUUCUCAGAAGAUGGGCUGCCUGUGGU", "RBNS enrichment (R)": 0.799}
{"Oligonucleotide": "UGUGUAGCUAGACUGUUAACCUACGAUUGUAAACUAGCUGUAAGGAUUUCCCAGUGAAAUCAGAUUUGGAAAGAAAAGAGAGAUAGUUCUCCGGGAUGCAUAGAUUCAUG", "RBNS enrichment (R)": 0.979}
{"Oligonucleotide": "CCUUUGCCAGGUGCUUAUUUAAGUACAAAUCCUUUUCAAAGGACUCUAGUGUUCAGUUGUUGAUGUGCCCCUGCCCACUGCCUGCUCGAGGAAUACCUCUGUUCUACCCA", "RBNS enrichment (R)": 0.493}
{"Oligonucleotide": "CUAAACAGUAAUUAAUUUAUAUUUGUGAAAAAUGCCACUGUCCUGGUGAUUUCUGAUGUAAAUAAUGUUGUUUAUAUAGUAUGUAUUAAAUUUUCCUACAUUGUAAAACU", "RBNS enrichment (R)": 0.344}
{"Oligonucleotide": "UUCCAAGGCCUUGCCCUCAGAGCAGGGGCCUGGGCACUCUCACUCACGUGGCCUGUCUCCAGAUCCCUGUCUGAUUUCUGAAUGUAAAGAGGCUUUUUGUUUUGUUUUUG", "RBNS enrichment (R)": 1.79}
{"Oligonucleotide": "UGACCCAUCCUGAGGCCAGAUACAUACUUUAAAAUUCAGAUAUUCACCGUAGCAGGUAGACAGAUGGAGGAUGGCUGGGGAAGGGAGUUGUGGGCUGAAGUUUAGGGGAC", "RBNS enrichment (R)": 1.13}
{"data": "Sample 2", "target": "Sal-like protein 4, full length isoform A (SALL4, Homo sapiens, UniProt Q9UJQ4, residues 1-1053)", "technique": "universal PBM", "molecule type": "double-stranded DNA, one strand shown", "sample": "in vitro", "tested at": "600 nM", "setting": "8-mer, flanks averaged, mean of replicates", "direction": "higher = stronger binding", "UniProt Q9UJQ4, sequence (whole entry, looked up)": "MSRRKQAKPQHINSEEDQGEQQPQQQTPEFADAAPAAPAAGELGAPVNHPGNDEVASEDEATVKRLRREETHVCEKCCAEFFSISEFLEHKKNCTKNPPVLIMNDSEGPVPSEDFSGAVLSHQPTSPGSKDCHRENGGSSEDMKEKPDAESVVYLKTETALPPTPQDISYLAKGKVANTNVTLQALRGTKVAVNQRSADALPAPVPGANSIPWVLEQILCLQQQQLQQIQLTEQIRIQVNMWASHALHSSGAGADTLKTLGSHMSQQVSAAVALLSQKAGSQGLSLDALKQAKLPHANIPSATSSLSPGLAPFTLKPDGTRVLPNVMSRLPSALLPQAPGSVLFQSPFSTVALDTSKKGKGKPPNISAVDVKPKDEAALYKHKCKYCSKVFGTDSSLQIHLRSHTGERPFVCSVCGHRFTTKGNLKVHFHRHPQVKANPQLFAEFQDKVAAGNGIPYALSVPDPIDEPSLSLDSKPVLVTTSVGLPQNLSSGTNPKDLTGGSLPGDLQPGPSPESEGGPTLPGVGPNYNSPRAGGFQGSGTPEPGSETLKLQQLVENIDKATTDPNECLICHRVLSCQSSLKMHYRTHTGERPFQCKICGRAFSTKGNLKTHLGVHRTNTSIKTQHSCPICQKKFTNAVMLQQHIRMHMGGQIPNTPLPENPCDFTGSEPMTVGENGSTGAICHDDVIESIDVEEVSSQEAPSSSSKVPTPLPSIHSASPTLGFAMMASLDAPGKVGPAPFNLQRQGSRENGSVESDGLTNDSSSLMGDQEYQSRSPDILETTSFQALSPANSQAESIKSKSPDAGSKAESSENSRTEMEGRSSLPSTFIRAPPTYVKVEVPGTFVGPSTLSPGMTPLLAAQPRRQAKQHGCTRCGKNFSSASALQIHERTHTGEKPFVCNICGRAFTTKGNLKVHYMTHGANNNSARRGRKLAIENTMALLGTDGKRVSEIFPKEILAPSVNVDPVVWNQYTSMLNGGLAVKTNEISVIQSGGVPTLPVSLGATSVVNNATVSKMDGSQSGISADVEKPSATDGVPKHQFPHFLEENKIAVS"}
{"Oligonucleotide": "AGACGGGC", "E-score": -0.301}
{"Oligonucleotide": "TCAGTCAA", "E-score": 0.0821}
{"Oligonucleotide": "CTAACCGA", "E-score": -0.162}
{"Oligonucleotide": "GCGACACA", "E-score": -0.0976}
{"Oligonucleotide": "CCCCGCCC", "E-score": 0.0199}
{"Oligonucleotide": "ACCCAAGG", "E-score": -0.0391}
{"Oligonucleotide": "GTAGATTA", "E-score": 0.286}
{"Oligonucleotide": "ATACAACG", "E-score": 0.144}
{"Oligonucleotide": "TTAGATAA", "E-score": 0.235}
{"Oligonucleotide": "ACTCGGGC", "E-score": -0.232}
{"Oligonucleotide": "GAATGAGA", "E-score": -0.0347}
{"Oligonucleotide": "CGGAGTAG", "E-score": -0.176}
{"Oligonucleotide": "AAAATAGC", "E-score": 0.0614}
{"Oligonucleotide": "CCGCGGTC", "E-score": -0.427}
{"Oligonucleotide": "AAACTCGC", "E-score": -0.0392}
{"Oligonucleotide": "AGTTGAGG", "E-score": -0.0975}
{"Oligonucleotide": "CACGGACG", "E-score": -0.16}
{"Oligonucleotide": "AAAATCGA", "E-score": 0.134}
{"Oligonucleotide": "CCGTACGC", "E-score": -0.201}
{"Oligonucleotide": "ACCGTACT", "E-score": 0.0585}
{"data": "Sample 3", "target": "Ras GTPase-activating protein-binding protein 1, full length (G3BP1, Homo sapiens, UniProt Q13283)", "technique": "RNA Bind-n-Seq", "molecule type": "RNA", "sample": "in vitro", "tested at": "200 nM", "setting": "whole 134-nt RNA, ends assumed", "with": "150 mM LiCl", "reference": "input library", "direction": "higher = stronger binding", "library": "7-deaza-guanosine replaces G", "shared flanks, not repeated": "GGGAGUUCUACAGUCCGACGAUC … UGGAAUUCUCGGGUGUCAAGG", "UniProt Q13283, sequence (whole entry, looked up)": "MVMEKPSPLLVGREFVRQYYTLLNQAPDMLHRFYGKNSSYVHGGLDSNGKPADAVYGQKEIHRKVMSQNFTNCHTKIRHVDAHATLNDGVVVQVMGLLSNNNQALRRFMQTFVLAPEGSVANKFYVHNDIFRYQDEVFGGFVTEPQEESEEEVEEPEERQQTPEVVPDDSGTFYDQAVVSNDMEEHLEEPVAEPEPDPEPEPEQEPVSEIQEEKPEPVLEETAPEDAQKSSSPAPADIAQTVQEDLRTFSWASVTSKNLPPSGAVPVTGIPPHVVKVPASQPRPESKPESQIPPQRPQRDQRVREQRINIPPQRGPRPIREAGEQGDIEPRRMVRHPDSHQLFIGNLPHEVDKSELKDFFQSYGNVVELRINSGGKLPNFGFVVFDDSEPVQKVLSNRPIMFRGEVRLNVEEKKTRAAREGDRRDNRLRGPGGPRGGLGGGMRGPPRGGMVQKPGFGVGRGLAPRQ"}
{"Oligonucleotide": "AACAUGCAGGUGGGCAUCUUUGGGAAGUGGGGCAAGGGGGGGAUAGGGAGGGGGGUAACACUUUGGGAACAGGUGGUCCCAGGUCGUUUC", "log2 enrichment": 0.331}
{"Oligonucleotide": "CACAGACAACACGCACCCACACAGCCACAGAGGGAAGGGGUUGGGAUGGGGACAGGGUGCACAGCAGGGCGGGGUAGGACCCCAGCCCCU", "log2 enrichment": -0.269}
{"Oligonucleotide": "GCAGGAAGUAAAAACAAAUGGAAAUGCUUCGGAUAGUGCCAGGGGUGGGGGUUGCUAAGGAAAGGGUGGGAUGGGAGUGGGUAAAGAGUU", "log2 enrichment": 0.432}
{"Oligonucleotide": "AAGUCCUGUGCUACACAUCGUAUGUACCGAAUCGGGGCCCGGGCCCGGGGCCCGGGAAAGUAUUAUGUUACGCCGUUCGGAUCUGCACUU", "log2 enrichment": -0.837}
{"Oligonucleotide": "GUCCUGUGCUACACAUCGUAUGUACCGAAUCGGGGUGGGGAAAGGGGUUUUUUUGGGGAAAGUAUUAUGUUACGCCGUUCGGAUCUGCAC", "log2 enrichment": 0.574}
{"Oligonucleotide": "GCAGGAAGUAAAAACAAAUGGCAAUGCUUCGGAUAGUGGCAGGGGUGGGGGUUGCUAAGGAAAGGGUGGGAUGGGAGUGGGUAAAGAGUU", "log2 enrichment": 0.263}
{"Oligonucleotide": "CUCAAGUCCUGUGCUACACAUCGUAUGUACCGAAUCGGUUGGGGUUGGUUGGGAAAGUAUUAUGUUACGCCGUUCGGAUCUGCACUUCCA", "log2 enrichment": 0.354}
{"Oligonucleotide": "CACAGACAACACGCACCCACACAGACACAGAGGGAAGGGGUUGAAAUGGGGACAGGGUGCACAGCAGGGCGGGGUAGGACCCCAGCCCCU", "log2 enrichment": -1.32}
{"Oligonucleotide": "AAGUCCUGUGCUACACAUCGUAUGUACCGAAUCGGAAAAAGGAAAAAAAGGUUUGGAAAGUAUUAUGUUACGCCGUUCGGAUCUGCACUU", "log2 enrichment": -2.81}
{"Oligonucleotide": "UCAAGUCCUGUGCUACACAUCGUAUGUACCGAAUCGGAGGAAAGGAAAAAAAGGAAAGUAUUAUGUUACGCCGUUCGGAUCUGCACUUCC", "log2 enrichment": -0.619}
{"Oligonucleotide": "AGUCCUGUGCUACACAUCGUAUGUACCGAAUCGGGUUUUUUUGGGUUUGGGUUUGGGAAAGUAUUAUGUUACGCCGUUCGGAUCUGCACU", "log2 enrichment": -0.593}
{"data": "Sample 4", "target": "Prothrombin, mature alpha-thrombin (F2, Homo sapiens, UniProt P00734)", "technique": "aptamer microarray, sandwich", "molecule type": "DNA with 2'F-ANA", "sample": "in vitro", "tested at": "200 nM", "setting": "whole 15-mer aptamer, many near background", "with": "Cy3 exosite-II aptamer, 400 nM", "direction": "higher = stronger binding", "oligonucleotide": "GGTTGGTGTGGTTGG"}
{"Modification": "2'F-ANA at 3 6 7 8 9 12 13 14 15", "mean fluorescence intensity [a.u.]": 626}
{"Modification": "2'F-ANA at 3 5 7 9 12 13", "mean fluorescence intensity [a.u.]": 167}
{"Modification": "2'F-ANA at 1 2 3 4 6 13 14", "mean fluorescence intensity [a.u.]": 67.4}
{"Modification": "2'F-ANA at 3 5 9 11 12 14 15", "mean fluorescence intensity [a.u.]": 57.3}
{"Modification": "2'F-ANA at 2 3 6 13 14 15", "mean fluorescence intensity [a.u.]": 353}
{"Modification": "2'F-ANA at 1 3 6 7 8 10 14 15", "mean fluorescence intensity [a.u.]": 65.2}
{"Modification": "2'F-ANA at 1 2 4 5 8 9 11 12 13 14 15", "mean fluorescence intensity [a.u.]": 197}
{"Modification": "2'F-ANA at 1 7 8 9 11 12 13 15", "mean fluorescence intensity [a.u.]": 291}
{"Modification": "2'F-ANA at 2 3 4 6 8 9 12 14", "mean fluorescence intensity [a.u.]": 255}
{"Modification": "2'F-ANA at 1 2 3 4 5 8 9 15", "mean fluorescence intensity [a.u.]": 67.8}
{"Modification": "2'F-ANA at 2 5 8 10 13", "mean fluorescence intensity [a.u.]": 46.3}
{"Modification": "2'F-ANA at 3 4 5 6 7 10 11 12 13", "mean fluorescence intensity [a.u.]": 79.5}
{"Modification": "2'F-ANA at 3 5 14", "mean fluorescence intensity [a.u.]": 78.8}
{"Modification": "2'F-ANA at 3 5 8 9 10 11 12", "mean fluorescence intensity [a.u.]": 69.3}
{"Modification": "2'F-ANA at 2 7 13 14", "mean fluorescence intensity [a.u.]": 158}
{"Modification": "2'F-ANA at 4 5 6 9 10 12 14", "mean fluorescence intensity [a.u.]": 44.9}
{"Modification": "2'F-ANA at 1 2 4 5 6 7 9 12 14 15", "mean fluorescence intensity [a.u.]": 54.4}
{"Modification": "2'F-ANA at 2 5 6 8 9 13 14 15", "mean fluorescence intensity [a.u.]": 47.2}
{"Modification": "2'F-ANA at 3 7 8 9 10 11 12 15", "mean fluorescence intensity [a.u.]": 587}
{"Modification": "2'F-ANA at 1 4 5 6 7 8 9 11", "mean fluorescence intensity [a.u.]": 72}
{"Modification": "2'F-ANA at 2 3 4 7 13 14", "mean fluorescence intensity [a.u.]": 387}
{"Modification": "2'F-ANA at 2 3 9 13 14 15", "mean fluorescence intensity [a.u.]": 379}
{"Modification": "2'F-ANA at 6 7 8 9 11", "mean fluorescence intensity [a.u.]": 444}
{"data": "Sample 5", "target": "ABI1, truncated, D143A, DHFR fusion (Arabidopsis thaliana)", "technique": "DHFR PCA, deep sequencing", "sample": "yeast", "setting": "methotrexate growth selection, single substitutions", "with": "(+)-ABA 17 µM", "reference": "wild-type fitted maximum", "direction": "higher = stronger binding", "starting sequence": "PYL1, truncated, DHFR fusion (Arabidopsis thaliana); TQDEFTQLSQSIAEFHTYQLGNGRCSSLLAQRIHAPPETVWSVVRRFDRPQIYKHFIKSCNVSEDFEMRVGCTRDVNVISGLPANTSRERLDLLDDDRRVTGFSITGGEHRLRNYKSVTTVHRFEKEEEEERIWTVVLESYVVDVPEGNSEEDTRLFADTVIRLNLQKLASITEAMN"}
{"Change": "K116Y", "relative binding score": "13.7%"}
{"Change": "D144V", "relative binding score": "7.69%"}
{"Change": "P50Q", "relative binding score": "-12.1%"}
{"Change": "N165V", "relative binding score": "-7.21%"}
{"Change": "S63R", "relative binding score": "83%"}
{"Change": "E127H", "relative binding score": "84.7%"}
{"Change": "F124I", "relative binding score": "96.7%"}
{"Change": "V62A", "relative binding score": "32.1%"}
{"Change": "A35M", "relative binding score": "12.3%"}
{"Change": "L82K", "relative binding score": "-15.1%"}
{"Change": "N77G", "relative binding score": "76.6%"}
{"Change": "A13Y", "relative binding score": "59.9%"}
{"note": "A few entries again (sample 2):"}
{"Oligonucleotide": "CCCCGCCC", "E-score": 0.0199}
{"Oligonucleotide": "GTAGATTA", "E-score": 0.286}
{"Oligonucleotide": "AAAATAGC", "E-score": 0.0614}
{"Oligonucleotide": "TCAGTCAA", "E-score": 0.0821}
